Literature values as cited in several papers.
Each line is one published result; not all experiments were run side by side. ± gives the spread as reported.
Sequence of UniProt P08913 (whole entry, looked up): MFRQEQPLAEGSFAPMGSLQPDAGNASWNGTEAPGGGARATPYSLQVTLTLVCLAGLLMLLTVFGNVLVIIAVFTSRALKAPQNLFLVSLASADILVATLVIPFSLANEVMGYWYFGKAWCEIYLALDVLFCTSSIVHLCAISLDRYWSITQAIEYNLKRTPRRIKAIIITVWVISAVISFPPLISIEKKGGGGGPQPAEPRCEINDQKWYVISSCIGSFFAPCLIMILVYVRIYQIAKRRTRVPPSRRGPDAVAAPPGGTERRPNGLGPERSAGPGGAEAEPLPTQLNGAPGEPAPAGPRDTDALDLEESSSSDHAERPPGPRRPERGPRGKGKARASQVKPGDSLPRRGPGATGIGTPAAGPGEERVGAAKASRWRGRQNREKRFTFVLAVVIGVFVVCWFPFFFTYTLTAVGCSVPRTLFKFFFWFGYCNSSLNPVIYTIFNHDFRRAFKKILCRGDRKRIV

The IC50 of O=C(Nc1cccnn1)N1CC(CC=Cc2cncc(Oc3ccc(C(F)(F)F)cn3)n2)C1 is reported as greater than 100 µM (FAAH (human); enzyme activity).
For CC12CC3CC(C)(C1)CC(N)(C3)C2, activity class read “inactive” (Toxoplasma gondii; parasite growth; concentration not given, published screen).
With c1ccc(N2CCN(Cc3nc4ccccc4[nH]3)CC2)nc1 the Ki was 0.0636 µM (DRD4.4; biochemical).
C[S+]([O-])CCCCN=C=S (centres unmarked) has a half-life of 4 h (rat).
Cc1ccccc1Oc1cc(-n2c(=O)cc(C(F)(F)F)[nH]c2=O)c2ccccc2c1 has an IC50 of 6.2 µM (BCAT1; cellular activity).
Cc1c(C#N)cccc1[C@@H](C)Nc1nnc(C)c2cnc(N3CCOCC3)cc12 has an IC50 of 0.141 ± 0.0172 µM (PC-9; 3D cell viability; 14 d).
The IC50 of N#CN1CC[C@@H](C(=O)Nc2nc3c(s2)CN(C(=O)CN=[N+]=[N-])CC3)C1 is reported as 12.9 µM (UCHL1 human; biochemical potency).
CNC(=O)[C@@]12C[C@@H]1[C@@H](n1cnc3c(NCc4cccc(Cl)c4)nc(C#Cc4ccc(F)c(F)c4)nc31)[C@H](O)[C@@H]2O has a Ki of 1 to 10 µM (ADRA2A (Homo sapiens, UniProt P08913); radioligand binding (PDSP)).
